Results of several laboratories.
Each line is one published result; not all experiments were run side by side. ± marks the error that the study gave.
rep main protease: Replicase polyprotein 1ab, main protease (rep, Severe acute respiratory syndrome coronavirus 2, UniProt P0DTD1)
rep papain-like protease: Replicase polyprotein 1ab, papain-like protease (rep, Severe acute respiratory syndrome coronavirus 2, UniProt P0DTD1)
rep nsp14 methyltransferase: Replicase polyprotein 1ab, nsp14 methyltransferase (rep, Severe acute respiratory syndrome coronavirus 2, UniProt P0DTD1)
rep nsp14 N7-methyltransferase: Replicase polyprotein 1ab, nsp14 N7-methyltransferase (rep, Severe acute respiratory syndrome coronavirus 2, UniProt P0DTD1)
rep nsp13 helicase: Replicase polyprotein 1ab, nsp13 helicase (rep, Severe acute respiratory syndrome coronavirus 2, UniProt P0DTD1)
Spike glycoprotein: Spike glycoprotein (Severe acute respiratory syndrome coronavirus 2, UniProt P0DTC2)

CN1c2ccccc2C(=O)Nc2cnc(Nc3ccc(N4CCC(O)CC4)cc3)nc21
inhibition (rep main protease; viral replication, mKate2 reporter; SARS-CoV-2; 20 µM): 0.606%

Cc1nn(-c2ccc(Cl)cc2)c2c1C(c1ccc(Cl)cc1Cl)C(C#N)=C(N)O2 (stereo not drawn)
inhibition (rep main protease; 3CL protease activity; 0.01 µg/mL, 120 min, enzyme 10 ng/mL): 11.6%

CCC(C(=O)Nc1cc(NC2CCNC2)ccc1C)n1cc(Cl)cc2nc(SCc3ccc(F)cc3)nc1-2 (stereo not drawn)
koff (rep papain-like protease; binding): 0.028 ± 0.002 s⁻¹

CNC(=O)[C@@H](NC(=O)[C@H](CC(C)C)[C@H](O)C(=O)NO)C(C)(C)C
viability difference (C2C12; 10 µM, added: GA venom; baseline: venom alone): 6.09%

CC1CC(c2ccc(C(=O)O)cc2)=NN1c1ccc(C#N)cc1.N (stereo not drawn)
lipophilic ligand efficiency (rep nsp14 methyltransferase): 1.7

c1cnc2c(c1)ccc1cccnc12
inhibition (rep main protease; reporter gene (mKate2), inhibitor; 20 µM): -0.724%

Cc1ccc(C(=O)Nc2ccc(S(=O)(=O)O)c3cc(S(=O)(=O)O)cc(S(=O)(=O)O)c23)cc1NC(=O)c1cccc(NC(=O)Nc2cccc(C(=O)Nc3cc(C(=O)Nc4ccc(S(=O)(=O)O)c5cc(S(=O)(=O)O)cc(S(=O)(=O)O)c45)ccc3C)c2)c1
Hill slope (rep nsp14 N7-methyltransferase; N7-methyltransferase activity, inhibitor, Py-FLINT): 1.17 ± 0.45

CC1=NN(c2ccccc2)C(=O)C1
inhibition (rep main protease; reporter gene (Gaussia luciferase), inhibitor; 20 µM): 0.985%

Nc1ccn([C@H]2C[C@H](O)[C@@H](COP(=O)(O)OP(=O)(O)OP(=O)(O)O)O2)c(=O)n1
Vmax (Replicase polyprotein 1ab, nsp12 RdRp (rep, Severe acute respiratory syndrome coronavirus 2, UniProt P0DTD1); nucleotide incorporation, substrate): 0.98 fraction per time

ivermectin
helicase inhibition (rep nsp13 helicase; DNA unwinding, inhibitor, MBHA; concentration not given): no inhibition

O=c1nc(Nc2cccc(Cl)c2)cn[nH]1
Hill slope (rep nsp14 N7-methyltransferase; N7-methyltransferase activity, inhibitor, Py-FLINT): 0.74 ± 0.12

O=C(NC[C@H](NC(=O)c1cncc2ccccc12)c1ccc2ccccc2c1)c1cccnc1
inhibition (rep main protease; enzyme activity, inhibitor; 5 µM, run 2): 12.3%

CC[C@H](C)[C@H](NC(=O)[C@H](CC(C)C)NC(=O)[C@H](Cc1c[nH]c2ccccc12)NC(=O)[C@H](CCC(N)=O)NC(=O)[C@@H](NC(=O)[C@H](Cc1ccccc1)NC(=O)[C@H](C)NC(=O)[C@H](CCCCNC(=O)COCCOCCNC(=O)COCCOCCNC(=O)CC[C@H](NC(=O)CCCCCCCCCCCCCCCCCCC(=O)O)C(=O)O)NC(=O)[C@H](CCC(N)=O)NC(=O)[C@H](C)NC(=O)[C@@H](NC(=O)[C@H](CCCCN)NC(=O)[C@H](CC(=O)O)NC(=O)[C@H](CC(C)C)NC(=O)C(C)(C)NC(=O)[C@@H](NC(=O)[C@H](CO)NC(=O)[C@H](Cc1ccc(O)cc1)NC(=O)[C@H](CC(=O)O)NC(=O)[C@H](CO)NC(=O)[C@@H](NC(=O)[C@H](Cc1ccccc1)NC(=O)[C@@H](NC(=O)CNC(=O)[C@H](CCC(=O)O)NC(=O)C(C)(C)NC(=O)[C@@H](N)Cc1ccc(O)cc1)[C@@H](C)O)[C@@H](C)O)[C@@H](C)CC)[C@@H](C)CC)C(C)C)C(=O)N[C@@H](C)C(=O)NCC(=O)NCC(=O)N1CCC[C@H]1C(=O)N[C@@H](CO)C(=O)N[C@@H](CO)C(=O)NCC(=O)N[C@@H](C)C(=O)N1CCC[C@H]1C(=O)N1CCC[C@H]1C(=O)N1CCC[C@H]1C(=O)N[C@@H](CO)C(N)=O
severe hypoglycaemia (healthy human; 1.0 mg, single ascending dose): 0%

Nc1ncnc2c1ncn2[C@@H]1O[C@H](CSCC[C@H](N)C(=O)O)[C@@H](O)[C@H]1O
Hill slope (Replicase polyprotein 1ab, nsp16 with nsp10 (rep, Severe acute respiratory syndrome coronavirus 2, UniProt P0DTD1); inhibitor): -0.8

CC(C)[C@H](O)C(=O)N[C@@H](C)C(=O)N[C@@H]1C(=O)N(C)CCc2ccccc21
inhibition (rep main protease; reporter gene (mKate2), inhibitor; 20 µM): -0.768%

CC(C)(C)c1ccc(N(C(=O)CCl)C(C(=O)NC2CCCCC2)c2cccnc2)cc1 (stereo not drawn)
kon (rep main protease; inhibitor, ITC, irreversible model; 16.7 µM): 390 ± 50 M⁻¹ s⁻¹

O=c1oc2c(O)c(O)cc3c(=O)oc4c(O)c(O)cc1c4c23
Hill slope (rep nsp14 N7-methyltransferase; N7-methyltransferase activity, inhibitor, Py-FLINT): 1.52 ± 0.25

COCCC(=O)N1CCC(Oc2ccccc2)C1 (stereo not drawn)
fold enrichment (rep nsp13 helicase; binding, affinity selection mass spectrometry; baseline: other proteins in batch): 0.796

Cc1cncc(CC(=O)N2CC3(CC[C@H](CNC(=O)[C@@]4(O)CCc5ccccc5C4)O3)C2)c1
inhibition (rep main protease; enzyme activity, inhibitor; 5 µM, run 1): 13.9%

N#C[C@@]1(n2ccc(N)nc2=O)O[C@H](COP(=O)(O)OP(=O)(O)OP(=O)(O)O)[C@@H](O)[C@H]1O
CNC:C mismatch incorporation (Replicase polyprotein 1ab, nsp12 with nsp7/nsp8 (rep, Severe acute respiratory syndrome coronavirus 2, UniProt P0DTD1); 45 min): < 1%

O=C1CCCC(=O)C1CC1C(=O)CCCC1=O
inhibition (rep main protease; viral replication, Gluc reporter; SARS-CoV-2; 20 µM): 1.19%

CC(=O)Nc1ccc(N2C(=O)c3cccc4c(Cl)ccc(c34)C2=O)cc1
Hill slope (rep nsp14 N7-methyltransferase; N7-methyltransferase activity, inhibitor, Py-FLINT): 0.88 ± 0.21

Cn1cnc(Cn2c(=O)[nH]/c(=N\c3cc4cn(C)nc4cc3Cl)n(Cc3cc(F)c(F)cc3F)c2=O)n1
dry mouth TEAE, Severe severity (human, moderate renal impairment; oral, 375 mg): 0%

CCCCC/C=C\C/C=C\CCCCCCCC(=O)O
Hill slope (rep nsp14 N7-methyltransferase; N7-methyltransferase activity, inhibitor, Py-FLINT): 2.02 ± 0.09

Cc1cncc(CC(=O)N2CCC[C@H]([C@H]3CCN(C(=O)c4cnc5cc(C)ccc5c4)C3)C2)c1
inhibition (rep main protease; enzyme activity, inhibitor; 5 µM, run 1): 11.4%

O=c1cc(-c2ccc(O)c(O)c2)oc2cc(O)cc(O)c12
Kd (Spike glycoprotein; binding, BLI): 97 µM

CCC[C@H](NC(=O)[C@H](CC(C)C)NC(=O)OCc1ccccc1)C(=O)C(=O)NCc1ccccc1
ΔTm (rep main protease; thermal stability, DSF): -0.07 °C

O=C(Cn1ccnn1)NC[C@H](NC(=O)c1cncc2ccccc12)c1ccc2ccccc2c1
inhibition (rep main protease; enzyme activity, inhibitor; 5 µM, run 1): 10.6%

COc1cc(O)c(CC=C(C)C)c2c1C(=O)CC(c1ccc(O)cc1)O2 (stereo not drawn)
Kd (Spike glycoprotein; binding, BLI): 10.6 µM

O=C(N[C@@H](CNC(=O)[C@H]1CC12CC2)c1ccc2ccccc2c1)c1cncc2ccccc12
inhibition (rep main protease; enzyme activity, inhibitor; 5 µM, run 2): 18%

CCN(Cc1cn(C[C@H]2O[C@@H](n3cnc4c(N)ncnc43)[C@H](O)[C@@H]2O)nn1)S(=O)(=O)c1ccc(OC)cc1
remaining binding (rep nsp14 N7-methyltransferase; N7-methyltransferase activity, inhibitor, radioactive filter binding; 50 µM, 0.5 h, 30 °C, added: GpppAC4 RNA, SAM): > 50%

O=C(c1cccc(CF)c1)N1CCCCC[C@@H](Nc2nc(-c3cccnc3)nc3c2CCC3)C1
inhibition (rep main protease; enzyme activity, inhibitor; 5 µM, run 1): 8.8%

CC(C)C[C@H](NC(=O)OCc1ccccc1)C(=O)N(C)N(C#N)CCC(N)=O
kinact/Ki (rep main protease; inhibitor, biochemical): 489 M⁻¹ s⁻¹

Nc1ncnc2c([C@@H]3N[C@H](CO)[C@@H](O)[C@H]3O)c[nH]c12
inhibition (Marburg virus; viral replication; HeLa, Musoke; 1.6 µM): 18%

O=c1c2ccccc2[se]n1-c1ccccc1
melting temperature (rep main protease; thermal shift; SARS-CoV-2; main protease): 42 °C

[H]/N=C(\N/C(=N/[H])NCCCCCCNC(=N)NC(=N)Nc1ccc(Cl)cc1)Nc1ccc(Cl)cc1
Hill slope (rep nsp14 N7-methyltransferase; N7-methyltransferase activity, inhibitor, Py-FLINT): 3.37 ± 0.12

Cc1cccc(N2CC(C(=O)O)CC2=O)c1 (stereo not drawn)
log fold enrichment (rep nsp13 helicase; binding, affinity selection mass spectrometry; baseline: other proteins in batch): -0.0519

Clc1cccc(/C=C/c2nn3c(-c4ccco4)nnc3s2)c1
Hill slope (rep nsp14 N7-methyltransferase; N7-methyltransferase activity, inhibitor, Py-FLINT): 1.03 ± 0.09

CC[C@H](NC(=O)CCC(=O)O)C(=O)N[C@H](C(=O)N[C@@H](CC(C)C)C(=O)N[C@@H](CCC(N)=O)C(=O)Nc1ccc2c(C)cc(=O)oc2c1)C(C)(C)C
apparent second-order rate constant (rep main protease; substrate; 5% DMSO; pH 7.2, 37 °C): 567 M⁻¹ s⁻¹

NC1=N[C@@]2(c3cc(NC(=O)c4ccc(F)cn4)ccc3F)COC[C@H]2CS1
inhibition (rep main protease; reporter gene (mKate2), inhibitor; 20 µM): -0.549%

CC(=O)Nc1ccc(-c2cnc(/N=C\c3cc4ccccc4nc3Cl)s2)cc1
melting temperature decrease (rep main protease; thermal shift; 100 µM, added: Mpro 15 µM): > 10 °C

CCC(C(=O)Nc1cc(NC2CCNCC2)ccc1C)n1cc(Br)cc2nc(SCc3ccc(F)cc3)nc1-2 (stereo not drawn)
koff (rep papain-like protease; binding): 0.04 s⁻¹

O=C1CC[C@@H](CCC(=O)N2CCCC[C@@H](C3CN(C(=O)c4cnc5n[nH]nc5c4)C3)C2)CN1
inhibition (rep main protease; enzyme activity, inhibitor; 5 µM, mean of runs): 14%

CC(C)(C)C(=O)Oc1ccc(S(=O)(=O)Nc2ccccc2C(=O)NCC(=O)O)cc1
inhibition (rep main protease; reporter gene (Gaussia luciferase), inhibitor; 20 µM): 0.354%

Nc1c(S(=O)(=O)O)cc(Nc2ccc(Nc3nc(Cl)nc(Nc4cccc(S(=O)(=O)O)c4)n3)c(S(=O)(=O)O)c2)c2c1C(=O)c1ccccc1C2=O
Hill slope (rep nsp14 N7-methyltransferase; N7-methyltransferase activity, inhibitor, Py-FLINT): 0.62 ± 0.06

CS(=O)(=O)n1cc2c(n1)CN([C@H]1CO[C@H](c3cc(F)ccc3F)[C@@H](N)C1)C2
inhibition (rep main protease; reporter gene (mKate2), inhibitor; 20 µM): 0.741%

O=C(NC[C@@H]1CC2(CCOCC2)CN1C(=O)C1=Cc2ccccc2OC1)c1cncnc1
inhibition (rep main protease; enzyme activity, inhibitor; 5 µM, run 2): 14.1%

CC1CC(c2ccc(C(=O)O)cc2)=NN1c1cccc(Cl)c1.N (stereo not drawn)
lipophilic ligand efficiency (rep nsp14 methyltransferase): 1.3
